Results pooled from the literature.
Parts stem from different laboratories: compare values within a part only.

Block 1
Target: Histone acetyltransferase KAT6A, winged helix 1, GST fusion (KAT6A, Homo sapiens, UniProt Q92794, residues 1-85)
Technique: protein binding microarray
Molecule type: double-stranded DNA, one strand shown
Sample: in vitro
Concentration: not given
Notes: 8-mer, flanks averaged, mean of 2 arrays, mostly near background
Baseline: not given
Reading: higher = stronger binding
Endpoint: E-score
Target sequence (chain): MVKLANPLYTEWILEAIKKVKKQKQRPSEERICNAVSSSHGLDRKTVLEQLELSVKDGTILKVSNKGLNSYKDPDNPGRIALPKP
ACTAGTAC: -0.0732
ACAGGGGA: -0.218
GAGCCACC: -0.116
AGTCGTGA: -0.18
GGCATTTA: -0.0368
CATAACAG: -0.0779
AATCGGCT: 0.135
CTTACCAA: -0.0186
ACAAGTTA: 0.0172

Block 2
Target: Interferon regulatory factor 5, full length, phosphomimetic (IRF5, Homo sapiens, UniProt Q13568-2, residues 1-514, K96S/S451D/S453D/S456D/S462D)
Technique: protein-binding microarray
Molecule type: double-stranded DNA, one strand shown
Sample: in vitro
Concentration: 250 nM
Notes: 60-bp whole probe
With: salmon DNA 0.4 mg/ml
Baseline: random background probes
Reading: higher = stronger binding
Endpoint: log fluorescence
All sequences stand within: GCCTAGCAC … GTCTTGATTCGCTTGACGCTGCTG
TTAGCTATCCTACTGCTTTAGTGCTAG: -0.0192 z-score
TTAGATATCAGAGTGGATTAGTGCTAG: 0.282 z-score
TTAGAACTGGCGTTTCGATTAGTGCTA: 4.2 z-score
CCCCAACTCGCCTTTTTTGTTGTGCTA: 0.239 z-score
TTAGGATTGGGTATCGGTTAGTGCTAG: 5.05 z-score
GACGATATCGGGTTTCGAGACGTGCTA: 3.72 z-score
TTAGATTCCAGTTTCGATAAGTGCTAG: 8.65 z-score

Block 3
Target: Centromere-binding protein 1, full length, N-terminal tag (CBF1, Saccharomyces cerevisiae, UniProt P17106, residues 1-351)
Sequence of UniProt P17106 (whole entry, looked up): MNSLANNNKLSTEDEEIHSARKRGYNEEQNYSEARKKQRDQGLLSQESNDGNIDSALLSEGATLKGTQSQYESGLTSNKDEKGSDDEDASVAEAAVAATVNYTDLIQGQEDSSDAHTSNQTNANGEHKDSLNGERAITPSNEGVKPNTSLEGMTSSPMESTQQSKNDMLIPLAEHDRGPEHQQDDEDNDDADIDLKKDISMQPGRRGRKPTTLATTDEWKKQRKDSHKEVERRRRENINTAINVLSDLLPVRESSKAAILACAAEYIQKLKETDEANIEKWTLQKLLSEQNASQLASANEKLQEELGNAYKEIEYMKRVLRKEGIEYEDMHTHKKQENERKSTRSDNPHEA
Technique: protein-binding microarray
Molecule type: double-stranded DNA, one strand shown
Sample: in vitro
Concentration: 0.8 µM
Notes: whole 60-bp probe, no competitor
Reading: higher = stronger binding
Endpoint: fluorescence intensity
All sequences stand within: … GTCTTGATTCGCTTGACGCTGCTG
CTAGTCATCTTCGCGCGCGTGCTAAAAAAAACGTTC: 1240 a.u.
CTAATCCTATGACAGGTGACCACAAGCCCCTCATTC: 2350 a.u.
GAATCTTTATGTAATTACGTGTGATACCTCCGATAG: 527 a.u.
GAAAGGCGATATGATGGTGATGGTGACGGTGATTAG: 552 a.u.
GAAAGCTCCCACGTGCATATCACGTGCATTATATAG: 25800 a.u.

Other studies, line by line
PhoQ, residues 284 288 289 292 302 303 WSHMKI  fold induction (PhoP, residues 12 14 15 18 19 SYFRT (Escherichia coli, UniProt P23836); Sort-seq, measured: YFP reporter; E. coli; PhoQ-PhoP variant library, with: 10 µM Mg2+; baseline: high Mg2+ state, higher = stronger signaling): 0.764

A few entries again (block 1):
AGTCGTGA: -0.18
GGCATTTA: -0.0368
